Measured values gathered from unrelated publications.
Compare with care: the assays were run in different laboratories. ± marks the error that the study gave.

Compound | cell line | assay | conditions | IC50
COc1cc(C=CC(=O)CC(=O)C=Cc2ccc(OC(=O)CCC(=O)OC3OC4OC5(C)CCC6C(C)CCC(C3C)C46OO5)c(OC)c2)ccc1OC(=O)CCC(=O)OC1OC2OC3(C)CCC4C(C)CCC(C1C)C24OO3 (stereo not drawn) | RPMI-7951 | cell viability, MTT | 24 h, together with: deferoxamine 20 µM, 1 h before | 1.18 ± 0.7 µM
CC(C)C[C@H](NC(=O)[C@H](CC(C)C)NC(=O)[C@H](CC(=O)O)NC(=O)[C@H](CCCCN)NC(=O)[C@H](Cc1ccccc1)NC(=O)CN)C(=O)N[C@@H](CCCCN)C(=O)N[C@H]1CSCc2ccccc2CSC[C@@H](C(=O)N[C@@H](CC(C)C)C(=O)N[C@H](C(=O)N[C@@H](CCCCN)C(=O)N[C@H](C(=O)N[C@H](C(=O)N[C@@H](CC(C)C)C(=O)N[C@@H](Cc2ccccc2)C(N)=O)C(C)C)[C@@H](C)O)C(C)C)NC(=O)[C@H](CCCCN)NC(=O)[C@H](C)NC(=O)[C@H](C)NC1=O | U87 | cell proliferation, CCK-8 | 48 h | 4.63 µM
C=C(C)CC(OC)C(O)C(=O)NC(OC)C1CC(=NOC)C(C)(C)C(CC(O)C(C)C2Cc3c(C)c(O)cc(O)c3C(=O)O2)O1 (single isomer, unassigned; (+)) | A2058 | cell growth or viability | – | 0.0005 µM
Cc1cc(C)c(-n2ccn(-c3c(C)cc(C)cc3C)c2=[Se])c(C)c1.[Cl][Ag] | LoVo MDR | MTT | 72 h | 2.3 ± 1 µM
CC(C)C[C@H](NC(=O)[C@H](CC(C)C)NC(=O)[C@H](CC(=O)O)NC(=O)[C@H](CCCCN)NC(=O)[C@H](Cc1ccccc1)NC(=O)CN)C(=O)N[C@@H](CCCCN)C(=O)N[C@H]1CSCc2ccc(cc2)CSC[C@@H](C(=O)N[C@@H](CC(C)C)C(=O)N[C@H](C(=O)N[C@@H](CCCCN)C(=O)N[C@H](C(=O)N[C@H](C(=O)N[C@@H](CC(C)C)C(=O)N[C@@H](Cc2ccccc2)C(N)=O)C(C)C)[C@@H](C)O)C(C)C)NC(=O)[C@H](CCCCN)NC(=O)[C@H](C)NC(=O)[C@H](C)NC1=O | U87 | cell proliferation, CCK-8 | 48 h | 12 µM
CC(=O)c1nn(-c2ccc([N+](=O)[O-])cc2)c2nc3nc(-c4ccccc4)cc(-c4ccc5ccccc5n4)c3c(=O)n12 | RPE-1 | cell growth or viability, MTT | 48 h | 24.1 µM
COc1cccc2c1cc([N+](=O)[O-])c1c(C(=O)O)cc3c(c12)OCO3 | HK-2 | – | – | 102 µM
CC(C)C[C@H](NC(=O)[C@H](CC(C)C)NC(=O)[C@H](Cc1c[nH]cn1)NC(=O)[C@H](CCC(=O)O)NC(=O)[C@H](CC(C)C)NC(=O)[C@H](Cc1c[nH]cn1)NC(=O)[C@H](CCC(=O)O)NC(=O)[C@H](CC(C)C)NC(=O)[C@H](CC(C)C)NC(=O)[C@H](Cc1c[nH]cn1)NC(=O)[C@H](CCC(=O)O)NC(=O)[C@@H](N)CC(C)C)C(=O)N[C@@H](CCC(=O)O)C(=O)N[C@@H](Cc1c[nH]cn1)C(N)=O | RG | cell viability, MTT | 0.5 h, pH 7.4 | > 100 µM
C=C(C)CC(OC)C(O)C(=O)NC(OC)C1CC(OC(C)=O)C(C)(C)C(CC(O)C(C)C2Cc3c(C)c(O)cc(O)c3C(=O)O2)O1 (single isomer, unassigned; (+)) | IMR-90 | cell growth or viability | – | 0.027 µM
C[C@@H](O)[C@H](NC(=O)[C@H](CCCNC(=N)N)NC(=O)[C@H](CCCNC(=N)N)NC(=O)[C@H](CCCNC(=N)N)NC(=O)[C@@H]1CCCN1C(=O)[C@@H](N)CO)C(=O)N1CCC[C@H]1C(=O)N[C@@H](CO)C(=O)N1CCC[C@H]1C(=O)N[C@@H](CCCNC(=N)N)C(=O)N[C@@H](CCCNC(=N)N)C(=O)N[C@@H](CCCNC(=N)N)C(=O)N[C@@H](CCCNC(=N)N)C(=O)N[C@@H](CO)C(=O)N[C@@H](CCC(N)=O)C(=O)N[C@@H](CO)C(=O)N1CCC[C@H]1C(=O)N[C@@H](CCCNC(=N)N)C(=O)N[C@@H](CCCNC(=N)N)C(=O)N[C@@H](CCCNC(=N)N)C(N)=O | BT-20 | cell viability, CellTiter-Blue | 24 h, serum-free medium | > 100 µM
CC(C)C[C@H](NC(=O)[C@H](CCCCN)NC(=O)[C@H](CC(C)C)NC(=O)[C@H](CC(C)C)NC(=O)[C@H](CCCCN)NC(=O)[C@H](CCCCN)NC(=O)[C@H](CC(C)C)NC(=O)[C@H](CC(C)C)NC(=O)[C@H](CCCCN)NC(=O)[C@H](CC(C)C)NC(=O)[C@H](CC(C)C)NC(=O)[C@H](CCCCN)NC(=O)[C@H](CCCCN)NC(=O)[C@@H](N)CC(C)C)C(N)=O | RG | cell viability, MTT | 0.5 h, pH 6.0 | 11.3 µM
C[C@@H]1O[C@@H](O[C@H]2[C@H](O)[C@@H](O)[C@H](OC[C@H]3O[C@@H](O[C@H]4CC[C@@]5(C)[C@@H](CC[C@]6(C)[C@@H]5C=C[C@]57OC[C@@]8(CCC(C)(C)C[C@H]85)[C@@H](O)C[C@]76C)[C@]4(C)CO)[C@H](O)[C@@H](O)[C@@H]3O)O[C@@H]2CO)[C@H](O)[C@H](O)[C@H]1O | HEK293T | cell viability, MTT | 48 h | > 100 µM
NC(=S)N/N=C/c1ccc(OCc2cccc(F)c2)cc1 | IMR-32 | cell growth or viability, MTT | 24 h | 14.3 µg/mL
CC(C)C[C@H](NC(=O)[C@H](CCCCN)NC(=O)[C@H](CC(C)C)NC(=O)[C@H](CC(C)C)NC(=O)[C@H](CCCCN)NC(=O)[C@H](CCCCN)NC(=O)[C@H](CC(C)C)NC(=O)[C@H](CC(C)C)NC(=O)[C@H](CCCCN)NC(=O)[C@H](CC(C)C)NC(=O)[C@H](CC(C)C)NC(=O)[C@H](CCCCN)NC(=O)[C@H](CCCCN)NC(=O)[C@H](CC(C)C)NC(=O)[C@@H](N)CSSC[C@H](N)C(=O)N[C@@H](CC(C)C)C(=O)N[C@@H](CCC(=O)O)C(=O)N[C@@H](CCC(=O)O)C(=O)N[C@@H](CC(C)C)C(=O)N[C@@H](CC(C)C)C(=O)N[C@@H](Cc1c[nH]cn1)C(=O)N[C@@H](Cc1c[nH]cn1)C(=O)N[C@@H](CC(C)C)C(=O)N[C@@H](CCC(=O)O)C(=O)N[C@@H](CCC(=O)O)C(=O)N[C@@H](CC(C)C)C(=O)N[C@@H](CC(C)C)C(=O)N[C@@H](Cc1c[nH]cn1)C(=O)N[C@@H](Cc1c[nH]cn1)C(N)=O)C(N)=O | HK-2 | cell growth or viability, MTT | pH 7.4 | > 100 µM
N.N.O=C([O][Pt]([OH])([Cl])[Cl])c1ccc(P(c2ccccc2)c2ccccc2)cc1.[Cl][Au] | IMR-90 | cell growth or viability, resazurin | 72 h | 48.9 µM
O=C(Cc1ccc2ccccc2c1)N[C@H](Cc1ccc(O)cc1)C(=O)N[C@H](Cc1ccccc1)C(=O)N[C@H](Cc1ccccc1)C(=O)N[C@H](Cc1ccc(OP(=O)(O)O)cc1)C(=O)O | A2780cis | cell growth or viability, MTT | – | 283 µg/mL
C=C(C)CC(OC)C(O)C(=O)NC(OC)C1CC(OC(=O)c2ccccc2)C(C)(C)C(CC(O)C(C)C2Cc3c(C)c(O)cc(O)c3C(=O)O2)O1 (single isomer, unassigned; (-)) | A2058 | cell growth or viability | – | 0.0027 µM
Cc1ccc(C(c2c(C)nn(-c3ccccc3)c2O)c2c(C)nn(-c3ccccc3)c2O)cc1 | HEK293 | cell growth or viability, MTT | 48 h | > 40 µM
O=C(Cc1ccc2ccccc2c1)N[C@H](Cc1ccccc1)C(=O)N[C@H](Cc1ccc(O)cc1)C(=O)N[C@H](Cc1ccccc1)C(=O)N[C@H](Cc1ccc(O)cc1)C(=O)O | HS5 | cell growth or viability, MTT | – | > 500 µg/mL
CC[C@H](C)[C@@H]1NC(=O)[C@H](CCCNC(=N)N)NC(=O)C[C@@H](c2cccc3ccccc23)NC(=O)[C@@H]2CSSC[C@H](NC(=O)C[C@@H](c3cccc4ccccc34)NC(=O)[C@H](CCCNC(=N)N)NC(=O)[C@@H]3CCCN3C(=O)[C@@H]3CCCN3C1=O)C(=O)N[C@@H](Cc1ccccc1)C(=O)N1CCC[C@H]1C(=O)N[C@@H](CC(=O)O)C(=O)N[C@@H](CC(=O)O)C(=O)N[C@@H](Cc1ccccc1)C(=O)N2 | BT-474 (HER2+) | cell growth | 72 h | 0.28 ± 0.021 µM
[Cl][Ag].[Se]=c1n(C2CCCCC2)ccn1C1CCCCC1 | A2780 | cell growth or viability | 72 h, 3D culture | 23.1 µM
CC(C)C[C@H](NC(=O)[C@H](CC(C)C)NC(=O)[C@H](CCC(=O)O)NC(=O)[C@H](CCC(=O)O)NC(=O)[C@H](CC(C)C)NC(=O)[C@H](Cc1c[nH]cn1)NC(=O)[C@H](Cc1c[nH]cn1)NC(=O)[C@H](CC(C)C)NC(=O)[C@H](CC(C)C)NC(=O)[C@H](CCC(=O)O)NC(=O)[C@H](CCC(=O)O)NC(=O)[C@@H](N)CC(C)C)C(=O)N[C@@H](Cc1c[nH]cn1)C(=O)N[C@@H](Cc1c[nH]cn1)C(N)=O | RG | cell viability, MTT | 0.5 h, pH 6.0 | > 100 µM
O=C(Cc1ccc2ccccc2c1)N[C@H](Cc1ccccc1)C(=O)N[C@H](Cc1ccccc1)C(=O)N[C@H](Cc1ccc(OP(=O)(O)O)cc1)C(=O)N[C@H](Cc1ccc(OP(=O)(O)O)cc1)C(=O)O | A2780cis | cell growth or viability, MTT | – | > 483 µg/mL
Cc1cc(C)c(N2CCN(c3c(C)cc(C)cc3C)C2=[Se])c(C)c1.[Cl][Au] | A-431 | cell growth or viability, MTT | 72 h | 1.8 µM
O=C(Nc1ccc(Br)cc1)c1cc(Br)cc(Br)c1O | LNCaP | cell growth or viability, resazurin | 72 h | 4.84 µM
NC1CCCCC1N.O=C1[O][Pt]([O]C(=O)c2ccc(P(c3ccccc3)c3ccccc3)cc2)([O]C(=O)c2ccc(P(c3ccccc3)c3ccccc3)cc2)[O]C1=O.[Cl][Au].[Cl][Au] | IMR-90 | cell growth or viability, resazurin | 72 h | > 100 µM
NC1CC1c1ccc(NC(=O)c2ccc(-c3ccccc3)cc2)cc1 (stereo not drawn) | MV4-11 (AML) | – | – | 2.3 ± 0.04 µM

Some of these lines once more:
Compound | cell line | assay | conditions | IC50
O=C(Cc1ccc2ccccc2c1)N[C@H](Cc1ccc(O)cc1)C(=O)N[C@H](Cc1ccccc1)C(=O)N[C@H](Cc1ccccc1)C(=O)N[C@H](Cc1ccc(OP(=O)(O)O)cc1)C(=O)O | A2780cis | cell growth or viability, MTT | – | 283 µg/mL
C=C(C)CC(OC)C(O)C(=O)NC(OC)C1CC(OC(=O)c2ccccc2)C(C)(C)C(CC(O)C(C)C2Cc3c(C)c(O)cc(O)c3C(=O)O2)O1 (single isomer, unassigned; (-)) | A2058 | cell growth or viability | – | 0.0027 µM
